{"data": "Results gathered from unrelated publications", "note": "Every numbered part comes from another study and shows a few of its results, in no order. Several values in a cell are separate wells, animals, samples, runs or records.", "chain of UniProt Q9NYL2 (whole entry, looked up)": "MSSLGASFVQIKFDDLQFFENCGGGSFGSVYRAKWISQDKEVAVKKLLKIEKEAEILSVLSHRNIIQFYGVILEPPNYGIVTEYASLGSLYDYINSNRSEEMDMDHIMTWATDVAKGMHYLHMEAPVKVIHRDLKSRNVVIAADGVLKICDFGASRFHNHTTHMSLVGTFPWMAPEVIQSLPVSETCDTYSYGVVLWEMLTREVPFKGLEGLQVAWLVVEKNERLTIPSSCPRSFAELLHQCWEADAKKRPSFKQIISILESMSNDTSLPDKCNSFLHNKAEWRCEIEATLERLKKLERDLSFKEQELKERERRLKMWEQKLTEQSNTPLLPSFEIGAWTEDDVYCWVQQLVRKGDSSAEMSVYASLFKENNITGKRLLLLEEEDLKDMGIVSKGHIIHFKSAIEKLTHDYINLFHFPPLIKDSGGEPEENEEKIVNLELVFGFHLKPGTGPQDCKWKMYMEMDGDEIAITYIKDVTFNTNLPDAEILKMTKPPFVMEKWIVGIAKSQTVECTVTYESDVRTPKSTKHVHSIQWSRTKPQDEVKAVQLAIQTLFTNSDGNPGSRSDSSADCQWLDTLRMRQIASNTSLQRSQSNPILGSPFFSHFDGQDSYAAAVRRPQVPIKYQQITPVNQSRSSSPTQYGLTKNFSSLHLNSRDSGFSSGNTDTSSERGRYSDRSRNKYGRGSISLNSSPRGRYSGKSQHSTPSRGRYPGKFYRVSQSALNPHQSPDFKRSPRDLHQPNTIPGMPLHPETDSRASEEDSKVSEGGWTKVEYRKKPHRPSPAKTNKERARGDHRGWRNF", "chain of UniProt Q9H0K1 (whole entry, looked up)": "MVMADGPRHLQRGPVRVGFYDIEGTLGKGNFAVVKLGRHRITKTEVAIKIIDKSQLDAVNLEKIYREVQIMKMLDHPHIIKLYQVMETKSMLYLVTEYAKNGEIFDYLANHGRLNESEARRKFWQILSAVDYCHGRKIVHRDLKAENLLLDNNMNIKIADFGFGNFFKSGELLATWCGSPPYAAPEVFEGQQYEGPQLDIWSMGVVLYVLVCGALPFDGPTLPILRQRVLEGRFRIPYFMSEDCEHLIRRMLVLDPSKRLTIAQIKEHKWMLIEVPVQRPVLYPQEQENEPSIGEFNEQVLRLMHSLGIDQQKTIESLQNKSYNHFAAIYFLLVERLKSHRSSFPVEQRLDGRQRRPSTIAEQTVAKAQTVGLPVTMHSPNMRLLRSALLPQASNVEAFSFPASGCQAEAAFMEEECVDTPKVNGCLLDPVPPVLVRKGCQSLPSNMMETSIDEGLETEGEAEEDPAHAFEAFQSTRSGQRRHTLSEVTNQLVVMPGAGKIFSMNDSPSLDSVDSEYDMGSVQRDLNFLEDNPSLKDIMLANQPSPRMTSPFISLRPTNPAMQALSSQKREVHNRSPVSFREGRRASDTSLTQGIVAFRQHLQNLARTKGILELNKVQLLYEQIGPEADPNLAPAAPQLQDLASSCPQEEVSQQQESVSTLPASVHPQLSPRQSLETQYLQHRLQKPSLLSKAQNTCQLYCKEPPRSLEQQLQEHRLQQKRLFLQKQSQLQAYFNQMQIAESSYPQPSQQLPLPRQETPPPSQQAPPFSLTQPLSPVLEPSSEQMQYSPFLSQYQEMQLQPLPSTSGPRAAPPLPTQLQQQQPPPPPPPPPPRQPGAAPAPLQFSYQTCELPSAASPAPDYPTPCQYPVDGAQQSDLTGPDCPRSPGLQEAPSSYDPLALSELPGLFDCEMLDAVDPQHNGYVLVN", "chain of UniProt P25098 (whole entry, looked up)": "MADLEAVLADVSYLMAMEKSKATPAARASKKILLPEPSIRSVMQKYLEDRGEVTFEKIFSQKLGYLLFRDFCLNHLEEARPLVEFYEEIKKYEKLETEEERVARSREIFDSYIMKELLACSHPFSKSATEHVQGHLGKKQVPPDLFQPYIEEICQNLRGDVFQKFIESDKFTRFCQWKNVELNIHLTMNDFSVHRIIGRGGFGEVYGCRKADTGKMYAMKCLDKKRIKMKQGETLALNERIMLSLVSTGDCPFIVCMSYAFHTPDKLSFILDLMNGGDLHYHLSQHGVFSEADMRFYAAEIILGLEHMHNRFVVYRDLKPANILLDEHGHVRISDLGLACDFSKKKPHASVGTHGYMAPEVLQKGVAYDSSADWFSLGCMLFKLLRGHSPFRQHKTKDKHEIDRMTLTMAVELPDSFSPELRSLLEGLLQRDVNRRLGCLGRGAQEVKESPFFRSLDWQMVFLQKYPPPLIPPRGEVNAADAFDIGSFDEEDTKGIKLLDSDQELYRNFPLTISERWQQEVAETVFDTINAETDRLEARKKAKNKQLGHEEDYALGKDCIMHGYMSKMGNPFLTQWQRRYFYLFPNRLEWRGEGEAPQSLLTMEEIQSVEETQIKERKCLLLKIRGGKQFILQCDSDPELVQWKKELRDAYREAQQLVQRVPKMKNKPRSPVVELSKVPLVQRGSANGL", "chain of UniProt Q05513 (whole entry, looked up)": "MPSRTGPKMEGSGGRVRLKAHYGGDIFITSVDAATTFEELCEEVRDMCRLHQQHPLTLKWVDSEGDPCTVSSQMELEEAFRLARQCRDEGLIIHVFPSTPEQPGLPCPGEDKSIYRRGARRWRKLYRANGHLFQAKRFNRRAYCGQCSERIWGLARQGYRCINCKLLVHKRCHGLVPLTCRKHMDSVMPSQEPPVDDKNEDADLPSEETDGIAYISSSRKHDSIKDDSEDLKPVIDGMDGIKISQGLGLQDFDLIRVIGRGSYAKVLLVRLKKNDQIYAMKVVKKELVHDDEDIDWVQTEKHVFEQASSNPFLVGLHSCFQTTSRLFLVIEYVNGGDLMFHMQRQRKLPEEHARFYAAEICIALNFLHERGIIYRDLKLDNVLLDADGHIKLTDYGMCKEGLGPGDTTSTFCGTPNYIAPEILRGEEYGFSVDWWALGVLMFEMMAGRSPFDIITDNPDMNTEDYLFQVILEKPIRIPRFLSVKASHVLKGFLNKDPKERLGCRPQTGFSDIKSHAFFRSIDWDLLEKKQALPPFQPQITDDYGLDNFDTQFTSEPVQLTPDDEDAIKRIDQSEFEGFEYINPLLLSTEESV", "chain of UniProt P49760 (whole entry, looked up)": "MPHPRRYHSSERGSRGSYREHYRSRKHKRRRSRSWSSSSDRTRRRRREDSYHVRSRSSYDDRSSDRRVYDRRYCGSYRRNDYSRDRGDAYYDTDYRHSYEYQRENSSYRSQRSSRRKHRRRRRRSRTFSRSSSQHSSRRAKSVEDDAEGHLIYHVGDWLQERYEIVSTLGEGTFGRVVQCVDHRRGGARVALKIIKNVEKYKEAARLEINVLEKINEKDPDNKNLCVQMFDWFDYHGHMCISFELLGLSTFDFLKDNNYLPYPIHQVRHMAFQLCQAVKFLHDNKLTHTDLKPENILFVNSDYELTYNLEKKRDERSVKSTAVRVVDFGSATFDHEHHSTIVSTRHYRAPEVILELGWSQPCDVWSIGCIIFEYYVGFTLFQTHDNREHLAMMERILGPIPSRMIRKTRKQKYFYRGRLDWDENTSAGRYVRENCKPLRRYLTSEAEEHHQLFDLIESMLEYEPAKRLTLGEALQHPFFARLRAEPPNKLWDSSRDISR", "chain of UniProt P42680 (whole entry, looked up)": "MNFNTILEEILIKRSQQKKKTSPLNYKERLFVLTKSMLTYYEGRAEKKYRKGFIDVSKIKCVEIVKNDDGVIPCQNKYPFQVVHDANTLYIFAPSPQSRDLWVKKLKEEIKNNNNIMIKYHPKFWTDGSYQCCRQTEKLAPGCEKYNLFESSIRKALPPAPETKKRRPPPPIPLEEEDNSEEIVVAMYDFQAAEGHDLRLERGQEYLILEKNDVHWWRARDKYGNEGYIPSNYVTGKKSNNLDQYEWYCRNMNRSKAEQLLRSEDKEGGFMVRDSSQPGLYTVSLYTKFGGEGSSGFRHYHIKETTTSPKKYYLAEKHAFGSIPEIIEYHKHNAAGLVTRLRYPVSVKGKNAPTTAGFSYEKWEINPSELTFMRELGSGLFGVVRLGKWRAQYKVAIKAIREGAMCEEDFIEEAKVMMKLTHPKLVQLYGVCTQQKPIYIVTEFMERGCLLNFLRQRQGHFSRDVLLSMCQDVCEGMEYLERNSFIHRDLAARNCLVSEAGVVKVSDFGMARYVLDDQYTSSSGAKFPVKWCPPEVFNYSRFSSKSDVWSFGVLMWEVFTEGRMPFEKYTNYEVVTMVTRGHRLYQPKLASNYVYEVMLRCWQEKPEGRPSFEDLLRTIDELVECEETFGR", "chain of UniProt Q9NQU5 (whole entry, looked up)": "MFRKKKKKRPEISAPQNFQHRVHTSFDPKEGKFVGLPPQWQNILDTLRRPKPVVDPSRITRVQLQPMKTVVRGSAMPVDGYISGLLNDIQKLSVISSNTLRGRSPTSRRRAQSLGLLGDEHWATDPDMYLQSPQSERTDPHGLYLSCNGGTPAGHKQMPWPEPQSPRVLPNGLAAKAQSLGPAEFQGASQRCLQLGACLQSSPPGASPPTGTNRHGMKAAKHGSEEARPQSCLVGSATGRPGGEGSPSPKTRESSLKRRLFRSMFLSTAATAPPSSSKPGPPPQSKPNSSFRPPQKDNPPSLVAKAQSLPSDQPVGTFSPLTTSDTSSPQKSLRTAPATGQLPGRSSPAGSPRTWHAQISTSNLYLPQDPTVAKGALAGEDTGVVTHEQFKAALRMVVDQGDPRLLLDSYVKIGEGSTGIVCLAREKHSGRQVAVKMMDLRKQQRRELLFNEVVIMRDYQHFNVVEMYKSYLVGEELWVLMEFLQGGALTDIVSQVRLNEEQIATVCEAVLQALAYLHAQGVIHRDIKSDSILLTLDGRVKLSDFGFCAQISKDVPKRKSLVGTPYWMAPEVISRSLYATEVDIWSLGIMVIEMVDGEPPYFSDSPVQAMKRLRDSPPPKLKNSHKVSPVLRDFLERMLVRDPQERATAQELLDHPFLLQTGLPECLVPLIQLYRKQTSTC"}
{"data": "Set 1", "SMILES": "Fc1ccc(-c2nc3n(c2-c2ccncc2)CCS3)cc1", "read-out": "enzyme activity", "mode": "inhibitor", "tested at": "0.5 µM", "baseline": "control"}
{"target": "IGF1R (Homo sapiens, UniProt P08069)", "remaining activity": "106%"}
{"target": "SRPK1 (Homo sapiens, UniProt Q96SB4)", "remaining activity": "100%"}
{"target": "CSNK1E (Homo sapiens, UniProt P49674)", "remaining activity": "20%"}
{"target": "PRKCQ (Homo sapiens, UniProt Q04759)", "remaining activity": "123%"}
{"target": "SGK2 (Homo sapiens, UniProt Q9HBY8)", "remaining activity": "105%"}
{"target": "TEC (Homo sapiens, UniProt P42680)", "remaining activity": "130%"}
{"target": "EPHA2 (Homo sapiens, UniProt P29317)", "remaining activity": "107%"}
{"target": "MAP3K20 (Homo sapiens, UniProt Q9NYL2)", "remaining activity": "100%"}
{"target": "EPHA6 (Homo sapiens, UniProt Q9UF33)", "remaining activity": "94.7%"}
{"target": "CLK2 (Homo sapiens, UniProt P49760)", "remaining activity": "105%"}
{"target": "FLT1 (Homo sapiens, UniProt P17948)", "remaining activity": "84.1%"}
{"target": "TYRO3 (Homo sapiens, UniProt Q06418)", "remaining activity": "104%"}
{"target": "CSNK1D (Homo sapiens, UniProt P48730)", "remaining activity": "6.99%"}
{"target": "JAK1 (Homo sapiens, UniProt P23458)", "remaining activity": "106%"}
{"target": "PAK1 (Homo sapiens, UniProt Q13153)", "remaining activity": "96.1%"}
{"target": "PRKCZ (Homo sapiens, UniProt Q05513)", "remaining activity": "90.6%"}
{"target": "SIK2 (Homo sapiens, UniProt Q9H0K1)", "remaining activity": "108%"}
{"target": "Cyclin-dependent kinase 2, with cyclin E (CDK2, Homo sapiens, UniProt P24941)", "remaining activity": "87.9%"}
{"target": "MUSK (Homo sapiens, UniProt O15146)", "remaining activity": "91.1%"}
{"target": "PAK6 (Homo sapiens, UniProt Q9NQU5)", "remaining activity": "106%"}
{"target": "CAMKK1 (Homo sapiens, UniProt Q8N5S9)", "remaining activity": "113%"}
{"target": "RPS6KA3 (Homo sapiens, UniProt P51812)", "remaining activity": "107%"}
{"target": "CAMK1 (Homo sapiens, UniProt Q14012)", "remaining activity": "107%"}
{"data": "Set 2", "cell line": "mouse MPNST tumor cells", "method": "high-content nuclear imaging", "measured": "cell number", "tested at": "10 µM", "time": "12 h", "notes": "mean of 2 replicates", "baseline": "plate mean", "direction": "higher = more cells"}
{"Structure (SMILES)": "Clc1ccccc1C(c1ccccc1)(c1ccccc1)n1ccnc1", "nuclei count": "0.383 z-score and 0.722 z-score"}
{"Structure (SMILES)": "Cc1cc(C)cc(OCC2CNC(=O)O2)c1 (stereo not drawn)", "nuclei count": "0.177 z-score"}
{"Structure (SMILES)": "CCN(CC)CCc1nc(-c2ccccc2)no1", "nuclei count": "-0.0583 z-score"}
{"Structure (SMILES)": "COC(=O)c1sccc1S(=O)(=O)Nc1ccc(Nc2ccccc2)cc1OC", "nuclei count": "1.6 z-score"}
{"Structure (SMILES)": "CC1CCc2cc(F)cc3c(=O)c(C(=O)O)cn1c23 (stereo not drawn)", "nuclei count": "1.64 z-score"}
{"Structure (SMILES)": "Cc1cc(C(C)Nc2ccc(F)c(-c3cc(C)c(C(=O)NC4(C(=O)O)CC4)c(C)c3)c2)ccc1Cl (stereo not drawn)", "nuclei count": "3.31 z-score"}
{"Structure (SMILES)": "c1ccc(CNCc2ccc(CN3CCCNCCNCCCNCC3)cc2)nc1", "nuclei count": "2.02 z-score"}
{"data": "Set 3", "cell line": "HaCaT", "tested at": "100 µM", "time": "18 h"}
{"Structure (SMILES)": "C=C1CC[C@H](O)C/C1=C/C=C1\\CCC[C@]2(C)[C@@H]([C@H](C)/C=C/[C@H](C)C(C)C)CC[C@@H]12", "viability": "47.5%"}
{"Structure (SMILES)": "OC[C@@H](O)[C@H](O)[C@@H](O)CO", "viability": "110%"}
{"Structure (SMILES)": "COC(=O)C1=CO[C@@H](O[C@@H]2O[C@H](CO)[C@@H](O)[C@H](O)[C@H]2O)[C@@H]2C(CO)=CC[C@H]12", "viability": "111%"}
{"Structure (SMILES)": "CC(=O)OCC(=O)[C@@]1(O)CC[C@H]2[C@@H]3CCC4=CC(=O)CC[C@]4(C)[C@H]3C(=O)C[C@@]21C", "viability": "111%"}
{"Structure (SMILES)": "CN1CC(=O)N2[C@H](c3ccc4c(c3)OCO4)c3[nH]c4ccccc4c3C[C@@H]2C1=O", "viability": "97.1%"}
{"Structure (SMILES)": "CNC[C@H](O)c1cccc(O)c1", "viability": "107%"}
{"Structure (SMILES)": "CCCCCCNC(=O)n1cc(F)c(=O)[nH]c1=O", "viability": "83.4%"}
{"Structure (SMILES)": "O=c1cc[nH]c(=O)[nH]1", "viability": "107%"}
{"Structure (SMILES)": "CC(=O)O[C@H]1C(=O)[C@@]2(C)[C@H]([C@H](OC(=O)c3ccccc3)[C@]3(O)C[C@H](OC(=O)[C@H](O)[C@@H](NC(=O)c4ccccc4)c4ccccc4)C(C)=C1C3(C)C)[C@]1(OC(C)=O)CO[C@@H]1C[C@@H]2O", "viability": "72.4%"}
{"Structure (SMILES)": "O=C1c2cccc(O)c2C(=O)c2c(O)cc(CO)cc21", "viability": "88.9%"}
{"Structure (SMILES)": "CC1(C)O[C@@H]2C[C@H]3[C@@H]4CCC5=CC(=O)CC[C@]5(C)[C@@]4(F)[C@@H](O)C[C@]3(C)[C@]2(C(=O)CCl)O1", "viability": "91.1%"}
{"data": "Set 4", "SMILES": "Cc1nc(N2CC[C@@H](O)C2)ncc1-c1cc(C(F)(F)F)cc2[nH]ncc12", "method": "competition with immobilised ligand", "tested at": "1 µM"}
{"target": "PIK3CG (Homo sapiens, UniProt P48736)", "read-out": "cell-free assay", "remaining binding": "82%"}
{"target": "MAP4K3 (Homo sapiens, UniProt Q8IVH8)", "read-out": "binding", "remaining binding": "100%"}
{"target": "BTK (Homo sapiens, UniProt Q06187)", "read-out": "cell-free assay", "remaining binding": "63%"}
{"target": "MTOR (Homo sapiens, UniProt P42345)", "read-out": "cell-free assay", "remaining binding": "100%"}
{"target": "GRK2 (Homo sapiens, UniProt P25098)", "read-out": "binding", "remaining binding": "42%"}
{"target": "ROS1 (Homo sapiens, UniProt P08922)", "read-out": "cell-free assay", "remaining binding": "86%"}
{"target": "MAP3K20 (Homo sapiens, UniProt Q9NYL2)", "read-out": "binding", "remaining binding": "100%"}
{"note": "For quick reference, copied from above (set 3):"}
{"Structure (SMILES)": "CN1CC(=O)N2[C@H](c3ccc4c(c3)OCO4)c3[nH]c4ccccc4c3C[C@@H]2C1=O", "viability": "97.1%"}
{"Structure (SMILES)": "CC(=O)O[C@H]1C(=O)[C@@]2(C)[C@H]([C@H](OC(=O)c3ccccc3)[C@]3(O)C[C@H](OC(=O)[C@H](O)[C@@H](NC(=O)c4ccccc4)c4ccccc4)C(C)=C1C3(C)C)[C@]1(OC(C)=O)CO[C@@H]1C[C@@H]2O", "viability": "72.4%"}
{"Structure (SMILES)": "C=C1CC[C@H](O)C/C1=C/C=C1\\CCC[C@]2(C)[C@@H]([C@H](C)/C=C/[C@H](C)C(C)C)CC[C@@H]12", "viability": "47.5%"}
{"Structure (SMILES)": "CC1(C)O[C@@H]2C[C@H]3[C@@H]4CCC5=CC(=O)CC[C@]5(C)[C@@]4(F)[C@@H](O)C[C@]3(C)[C@]2(C(=O)CCl)O1", "viability": "91.1%"}
{"Structure (SMILES)": "O=C1c2cccc(O)c2C(=O)c2c(O)cc(CO)cc21", "viability": "88.9%"}
{"Structure (SMILES)": "CNC[C@H](O)c1cccc(O)c1", "viability": "107%"}
